Experimental data collected from several papers.
Compare with care: the assays were run in different laboratories.

Cc1cc(Nc2cc3ncccc3c(N[C@@H]3C[C@H]4CC[C@@H](C3)N4CCC#N)n2)n[nH]1 has a Cmax of 37.4 ng/mL (Sprague-Dawley rat, female, plasma; oral, 100 mg/kg/day, last day of 13 weeks).
With Cc1nc2cccc(OCC(C)(C)C(=O)NC(C)C)c2c(N)c1C(=O)O the Cmax was 47.5 ng/mL (female Sprague-Dawley rat, plasma; dietary, 60 mg/kg/day, day 90).
CCCC[C@H](NC(C)=O)C(=O)N[C@H]1CCC(=O)NC[C@@H](C(=O)N[C@@H](Cc2c[nH]c3ccccc23)C(N)=O)NC(=O)[C@H](CCCNC(=N)N)NC(=O)[C@@H](Cc2ccccc2)NC(=O)[C@H](Cc2c[nH]cn2)NC1=O has a Cmax of 98 ng/mL (beagle dog, male, plasma; subcutaneous, 1.5 mg/kg daily, day 28).
The Cmax of CS(=O)(=O)Nc1ccc(C(=O)O[C@@H](Cc2c(Cl)c[n+]([O-])cc2Cl)c2ccc(OC(F)F)c(OCC3CC3)c2)cc1OCC1CC1 is reported as 5.45 ng/mL (human, plasma; inhaled, 2000 µg twice daily, day 14, multi-dose dry powder inhaler).
O=c1[nH]c(=O)c(Cc2cccc(C(F)(F)F)c2)c([C@H]2CC[C@H](c3ccccc3)CC2)[nH]1 has a Cmax of 216 ng/mL (human, fasted, plasma; oral, 300 mg single dose, geometric mean).
COc1cccc(-c2n[nH]c(SCc3ccccn3)n2)c1OC has a Cmax of 2060 ng/mL (Sprague-Dawley rat, both sexes, plasma; oral, diet, 30 mg/kg/day, day 7).
For CO[C@H]1C[C@@H]2CC[C@@H](C)[C@@](O)(O2)C(=O)C(=O)N2CCCC[C@H]2C(=O)O[C@H]([C@H](C)C[C@@H]2CC[C@@H](O)[C@H](OC)C2)CC(=O)[C@H](C)/C=C(\C)[C@@H](O)[C@@H](OC)C(=O)[C@H](C)C[C@H](C)/C=C/C=C/C=C/1C, the Cmax was 128 ng/mL (human, whole blood; oral, 15 mg, added: grapefruit juice).
CC1=C2C[C@H]3[C@@H](CC[C@@H]4C[C@H](NS(C)(=O)=O)CC[C@@]43C)[C@@H]2CC[C@@]2(C1)O[C@@H]1C[C@H](C)CN[C@H]1[C@H]2C has a Cmax of 13.1 ng/mL (patients, plasma; oral, 20 mg daily, day 22, cycle 1).
With CC(C)NC[C@@H](C(=O)N1CCN(c2ncnc3c2[C@H](C)C[C@H]3O)CC1)c1ccc(Cl)cc1 the Cmax was 53 ng/mL (human, hepatic impairment Mild (Child-Pugh), plasma; oral, 100 mg single, geometric mean).
With O=C(CCCCCCC(=O)Nc1ccccc1)NO the Cmax was 8.74 µM (patients, serum; oral, 1000 mg, cycle -1 day 2, alone).
For CNCc1ccc(-c2[nH]c3cc(F)cc4c3c2CCNC4=O)cc1, the Cmax was 415 ng/mL (human, plasma; oral, 300 mg, fasted, mean).

For quick reference, copied from above:
CC1=C2C[C@H]3[C@@H](CC[C@@H]4C[C@H](NS(C)(=O)=O)CC[C@@]43C)[C@@H]2CC[C@@]2(C1)O[C@@H]1C[C@H](C)CN[C@H]1[C@H]2C has a Cmax of 13.1 ng/mL (patients, plasma; oral, 20 mg daily, day 22, cycle 1).
